{"data": "Assay results collected from several papers", "note": "Protocols differ between the studies behind these lines. Numbers after ± are the reported error."}
{"Structure (SMILES)": "CCCC[C@H](NC(=O)CNC(=O)CNC(=O)[C@H](CCCCNC(=O)[C@H](CC(=O)O)NC(=O)C(C)c1ccc(CC(C)C)cc1)NC(=O)CN1CCN(CC(=O)O)CCN(CC(=O)O)CCN(CC(=O)O)CC1)C(=O)N[C@H]1CC(=O)NCCCC[C@@H](C(N)=O)NC(=O)[C@H](Cc2c[nH]c3ccccc23)NC(=O)[C@H](CCCNC(=N)N)NC(=O)[C@@H](Cc2ccccc2)NC(=O)[C@H](Cc2c[nH]cn2)NC1=O (stereo partly shown) [lutetium-177 labelled]", "test system": "C57 mouse", "conditions": "intravenous, 2 h, together with: NDP-MSH blockade", "scale": "relative to: tumour over kidney", "measurement": "tumour to tissue ratio", "result": 0.21}
{"Structure (SMILES)": "CC(C)(C)C(=O)Nc1ccc2[nH]c(CN3CCC(N(CCCN4CCOCC4)CC4OC(n5cnc6c(N)ncnc65)C(O)C4O)CC3)nc2c1 (stereo not shown)", "test system": "male Sprague-Dawley rat, plasma", "conditions": "intravenous, 20 mg/kg, 1 h", "measurement": "concentration", "result": "370 ng/mL"}
{"Structure (SMILES)": "O=C(Nc1cnccc1-c1ccc([18F])nc1)c1ccnc(NC(=O)C2CC2)c1", "assay": "ex vivo gamma counting", "test system": "FVB/NJ mice, both sexes, cecum", "conditions": "intravenous, 120 min, together with: tariquidar 15 mg/kg iv", "measurement": "mean SUV", "result": 1.7}
{"Structure (SMILES)": "Cc1cccc(Cn2ncc3c4cc(F)c(CN(C)C)cc4n(C)c3c2=O)n1", "test system": "Dutch-belted rabbit, plasma", "conditions": "intravitreal, 1 µM vitreous, 1.00 days", "measurement": "plasma concentration", "result": "not detected"}
{"Structure (SMILES)": "COc1cccc(OC)c1-c1cc(C(=O)NC2(C(=O)O)C3CC4CC(C3)CC2C4)nn1-c1ccc(C(=O)N(C)CCCN(C)CCCN(C)C(=O)[C@H](CCCCNC(=O)[C@H](CC(C)C)NC(=O)C2OC2C(=O)O)NC(=O)CN2CCN(CC(=O)[O-])CCN(CC(=O)[O-])CCN(CC(=O)[O-])CC2)cc1C(C)C.[177Lu+3] (mixture of isomers)", "test system": "mouse, HT-29 xenograft", "conditions": "24 h post injection, biodistribution", "scale": "relative to: tumour over heart uptake", "measurement": "tumour-to-heart ratio", "result": 31.7}
{"Structure (SMILES)": "Cc1nc(N)nc2c1C(=O)N[C@@H](c1ccc(F)cc1-c1cccc(O[11CH3])n1)C2", "assay": "ex vivo biodistribution", "test system": "healthy mice, spleen", "conditions": "60 min post-injection, baseline, vehicle pre-treatment", "measurement": "tracer uptake", "result": "1 ± 0.2 %ID"}
{"Structure (SMILES)": "C=Cc1c(C)c2cc3nc(c(CC(=O)OCCOCCOCCOC)c4[nH]c(cc5nc(cc1[nH]2)C(C)=C5CC)c(C)c4C(=O)OCCOCCOCCOC)[C@@H](CCC(=O)OCCOCCOCCOC)[C@@H]3C", "assay": "LC-MS", "test system": "methanol-water 9:1", "conditions": "4 h, pH 8.0", "measurement": "compound loss", "result": "100%"}
{"Structure (SMILES)": "COC1CN([C@H]2CC[C@H]([C@@]3(C)Oc4c(Cl)cc(C(=O)NCc5c(SC)cc(C)[nH]c5=O)c(C)c4O3)CC2)C1", "test system": "female CB17 SCID mice, KARPAS-422 xenograft, plasma", "conditions": "25 mg/kg, day 12", "measurement": "AUC(0-t)", "result": "2010 ng·h/mL"}
{"Structure (SMILES)": "COc1ccnc(C(=O)N[C@H]2COC(=O)[C@H](Cc3ccccc3)[C@@H](OC(=O)C(C)C)[C@H](C)OC2=O)c1O", "test system": "Swiss Lake sand sediment, aerobic dark", "conditions": "20 °C", "measurement": "DT50 water", "result": "2.57 days"}
{"Structure (SMILES)": "CN([O-])C(=O)CN1CCNCCN(CC(=O)N(C)[O-])CC1.[89Zr+4]", "test system": "mouse, liver", "conditions": "intravenous, 1 h", "measurement": "tracer uptake", "result": "0.24 %ID/g"}
{"Structure (SMILES)": "CCCCN1C(=O)c2cccc3c(NCCCCCCN4CCOCC4)ccc(c23)C1=O", "test system": "water", "conditions": "pH 6.0", "measurement": "fluorescence quantum yield", "result": 0.32}
{"Structure (SMILES)": "C=CC(=O)Nc1cc(Nc2nccc(-c3c[nH]c4ccccc34)n2)c(OC)cc1N(C)CCN(C)C", "assay": "storage stability", "test system": "human dried blood spots", "conditions": "72 h, -80 °C, high QC level", "measurement": "recovery", "result": "89%"}
{"Structure (SMILES)": "O=C(OC(C(F)(F)F)C(F)(F)F)N1CCC(CNS(=O)(=O)c2ccc(Cl)cc2)CC1", "test system": "male SCID mouse, plasma", "conditions": "oral, 10 mg/kg", "measurement": "Cmax", "result": "218 ng/mL"}
{"Structure (SMILES)": "Cc1ccc(CN2C(=O)/C(=N\\c3ccc(Cl)cc3Br)c3ccccc32)cc1", "test system": "mouse, blood", "conditions": "200 mg/kg", "measurement": "haematocrit", "result": "38.2 ± 0.67%"}
{"Structure (SMILES)": "CNCc1ccc(-c2cc(=O)c3ccc4[nH]c(C(F)(F)F)nc4c3o2)cc1", "test system": "ICR mice, plasma", "conditions": "oral, 5 mg/kg", "measurement": "t1/2", "result": "~4.09 h"}
{"Structure (SMILES)": "CN[C@H](CC(C)C)C(=O)N[C@H]1C(=O)N[C@@H](CC(N)=O)C(=O)N[C@H]2C(=O)N[C@H]3C(=O)N[C@H](C(=O)N[C@H](C(=O)N[C@H](CCCNC(=N)N)C(N)=O)c4cc(O)cc(O)c4-c4cc3ccc4O)[C@H](O)c3ccc(c(Cl)c3)Oc3cc2cc(c3O[C@@H]2O[C@H](CO)[C@@H](O)[C@H](O)[C@H]2O[C@H]2C[C@](C)(N)[C@H](O)[C@H](C)O2)Oc2ccc(cc2Cl)[C@H]1O", "test system": "female CD-1 mouse, plasma", "conditions": "intravenous, 5 mg/kg, single dose", "measurement": "Cmax", "result": "13100 ng/mL"}
{"Structure (SMILES)": "CCNCC#CCNc1ccnc2cc(Cl)ccc12", "assay": "item: compound as metabolite", "test system": "monkey hepatocytes", "conditions": "10 µM DAQ, 30 min", "scale": "relative to: parent at time zero", "measurement": "relative UV abundance", "result": "40.4%"}
{"Structure (SMILES)": "C=C(NC(=O)c1csc(-c2nc3c(cc2O)-c2nc(cs2)C(=O)NC(C(C)O)C(=O)NC(=C(C)OC)c2nc(cs2)C(=O)NC2c4nc(cs4)C(=O)NC(COC(=O)c4c5c6c(cccc6n4O)COC(=O)C(OC4CC(C)(O)C(N(C)C)C(C)O4)C2OC5)c2nc-3cs2)n1)C(N)=O (stereo not shown)", "test system": "cynomolgus monkey, male, plasma", "conditions": "intravenous infusion, 1.5 mg/kg twice daily, 0 to 30 h", "measurement": "Tmax", "result": "0.23 h"}
{"Structure (SMILES)": "C#CCNC(=O)C(CC(C)(C)F)NC(c1ccc(-c2ccc(S(C)(=O)=O)cc2)cc1)C(F)(F)F (stereo not shown)", "test system": "PBS", "conditions": "100 µM, 23 h, pH 8, 37 °C, together with: cysteine 10 mM", "measurement": "cysteine adduct formation", "result": "< 1%"}
{"Structure (SMILES)": "CN1CCC[C@]1(C)/C=C/S(=O)(=O)NC(=O)Nc1c2c(cc3c1C(O)CC3)CCC2 (stereo partly shown)", "test system": "human, plasma", "conditions": "oral, 12.5 mg twice daily of parent drug, day 14, metabolite of dosed drug", "measurement": "Tmax at second steady-state dose", "result": "3.5 h"}
{"Structure (SMILES)": "COc1cc(-c2cc(=O)c3ccc(OCCCn4c(Cl)nc5ccccc54)cc3o2)cc(OC)c1OC", "test system": "Sprague-Dawley rat male, plasma", "conditions": "intravenous, 10 mg/kg", "measurement": "CLz/F", "result": "750 ± 91.8 mL/min/kg"}
{"Structure (SMILES)": "CN(CCCO)Cc1ccc(-c2noc(-c3ccc(OCC[18F])c(C(F)(F)F)c3)n2)cc1F", "test system": "Sprague-Dawley rats, male, small intestine", "conditions": "5 min post-injection", "measurement": "tissue uptake", "result": "1.06 ± 0.19 %ID/g"}
{"Structure (SMILES)": "Cc1cc(-c2ccc(C(=O)[C@@H]3CCCC[C@H]3C(=O)Nc3cnn4c3C(=O)NCC4)cc2)[nH]n1", "test system": "human, urine and faeces", "conditions": "oral, 200 mg, mean of six subjects", "scale": "relative to: dose", "measurement": "recovery of radioactivity", "result": "85.2%"}
{"Structure (SMILES)": "C=CC(=O)Nc1cc(Nc2nccc(-c3cn(C4CC4)c4ccccc34)n2)c(OC)cc1N(C)CCNC", "assay": "long-term storage stability", "test system": "rat plasma", "conditions": "80 ng/mL, 3 weeks, -80 °C", "scale": "relative to: nominal concentration", "measurement": "relative error", "result": "1.7%"}
{"Structure (SMILES)": "C[N+](C)(CCOCCOCCOCCNC(=S)Nc1ccc(C[C@H]2CN(CC(=O)[O-])CCN(CC(=O)[O-])CCN2CC(=O)[O-])cc1)C[c-]1cccc1.[64Cu+2].[Fe+2].c1cc[cH-]c1", "assay": "pretargeted PET", "test system": "nude mouse, BxPC-3 xenograft", "conditions": "24 h post-radioligand, 216 h lag time", "measurement": "tumour uptake", "result": "0.7 ± 0.1 %ID/mL"}
{"Structure (SMILES)": "Cc1cc(NC(=O)[C@H](O)c2cc(F)cc(F)c2)ccc1-c1cnc(N)c(C(=O)NC(C)C)c1", "test system": "female nude mouse, plasma", "conditions": "oral, 50 mg/kg, single dose", "measurement": "Cmax", "result": "7800 ng/mL"}
{"Structure (SMILES)": "O=C(Nc1cnccc1-c1ccc([18F])cc1)c1ccnc(NC(=O)C2CC2)c1", "test system": "mice, transgenic, GSK-3β, early-stage, lung", "conditions": "intravenous, dose not given, 120 min", "measurement": "SUV", "result": 0.2}
{"Structure (SMILES)": "O=C(NS(=O)(=O)c1cccs1)c1cc2ccccc2n1Cc1ccc(Br)c2ccccc12", "test system": "Sprague-Dawley rat, male, ankle joint tissue", "conditions": "oral, 2 mg/kg, 2 h", "measurement": "tissue concentration", "result": "83700 ng/g"}
{"note": "A few entries again:"}
{"Structure (SMILES)": "O=C(Nc1cnccc1-c1ccc([18F])cc1)c1ccnc(NC(=O)C2CC2)c1", "test system": "mice, transgenic, GSK-3β, early-stage, lung", "conditions": "intravenous, dose not given, 120 min", "measurement": "SUV", "result": 0.2}
{"Structure (SMILES)": "Cc1nc(N)nc2c1C(=O)N[C@@H](c1ccc(F)cc1-c1cccc(O[11CH3])n1)C2", "assay": "ex vivo biodistribution", "test system": "healthy mice, spleen", "conditions": "60 min post-injection, baseline, vehicle pre-treatment", "measurement": "tracer uptake", "result": "1 ± 0.2 %ID"}
{"Structure (SMILES)": "CN([O-])C(=O)CN1CCNCCN(CC(=O)N(C)[O-])CC1.[89Zr+4]", "test system": "mouse, liver", "conditions": "intravenous, 1 h", "measurement": "tracer uptake", "result": "0.24 %ID/g"}
{"Structure (SMILES)": "C#CCNC(=O)C(CC(C)(C)F)NC(c1ccc(-c2ccc(S(C)(=O)=O)cc2)cc1)C(F)(F)F (stereo not shown)", "test system": "PBS", "conditions": "100 µM, 23 h, pH 8, 37 °C, together with: cysteine 10 mM", "measurement": "cysteine adduct formation", "result": "< 1%"}
